Measured values from different studies.
Parts stem from different laboratories: compare values within a part only. Several values in a cell are separate wells, animals, samples, runs or records. Changes are numbered by the printed parent chain.
Chain of UniProt Q9BRS2 (whole entry, looked up): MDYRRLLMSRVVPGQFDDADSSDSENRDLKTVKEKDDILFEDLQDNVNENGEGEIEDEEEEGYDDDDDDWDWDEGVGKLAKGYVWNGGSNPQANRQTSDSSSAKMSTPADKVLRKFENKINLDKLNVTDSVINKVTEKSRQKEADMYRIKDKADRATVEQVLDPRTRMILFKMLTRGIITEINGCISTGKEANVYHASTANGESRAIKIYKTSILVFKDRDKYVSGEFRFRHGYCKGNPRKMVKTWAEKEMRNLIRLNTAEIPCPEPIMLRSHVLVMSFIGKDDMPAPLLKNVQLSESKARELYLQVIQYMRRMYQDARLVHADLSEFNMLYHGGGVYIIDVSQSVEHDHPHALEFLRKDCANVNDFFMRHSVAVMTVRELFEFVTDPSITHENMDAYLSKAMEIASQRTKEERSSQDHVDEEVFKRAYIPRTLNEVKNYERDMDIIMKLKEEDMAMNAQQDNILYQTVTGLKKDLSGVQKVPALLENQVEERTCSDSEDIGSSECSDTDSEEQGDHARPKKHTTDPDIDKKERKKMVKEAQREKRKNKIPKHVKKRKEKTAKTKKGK
Chain of UniProt P54762 (whole entry, looked up): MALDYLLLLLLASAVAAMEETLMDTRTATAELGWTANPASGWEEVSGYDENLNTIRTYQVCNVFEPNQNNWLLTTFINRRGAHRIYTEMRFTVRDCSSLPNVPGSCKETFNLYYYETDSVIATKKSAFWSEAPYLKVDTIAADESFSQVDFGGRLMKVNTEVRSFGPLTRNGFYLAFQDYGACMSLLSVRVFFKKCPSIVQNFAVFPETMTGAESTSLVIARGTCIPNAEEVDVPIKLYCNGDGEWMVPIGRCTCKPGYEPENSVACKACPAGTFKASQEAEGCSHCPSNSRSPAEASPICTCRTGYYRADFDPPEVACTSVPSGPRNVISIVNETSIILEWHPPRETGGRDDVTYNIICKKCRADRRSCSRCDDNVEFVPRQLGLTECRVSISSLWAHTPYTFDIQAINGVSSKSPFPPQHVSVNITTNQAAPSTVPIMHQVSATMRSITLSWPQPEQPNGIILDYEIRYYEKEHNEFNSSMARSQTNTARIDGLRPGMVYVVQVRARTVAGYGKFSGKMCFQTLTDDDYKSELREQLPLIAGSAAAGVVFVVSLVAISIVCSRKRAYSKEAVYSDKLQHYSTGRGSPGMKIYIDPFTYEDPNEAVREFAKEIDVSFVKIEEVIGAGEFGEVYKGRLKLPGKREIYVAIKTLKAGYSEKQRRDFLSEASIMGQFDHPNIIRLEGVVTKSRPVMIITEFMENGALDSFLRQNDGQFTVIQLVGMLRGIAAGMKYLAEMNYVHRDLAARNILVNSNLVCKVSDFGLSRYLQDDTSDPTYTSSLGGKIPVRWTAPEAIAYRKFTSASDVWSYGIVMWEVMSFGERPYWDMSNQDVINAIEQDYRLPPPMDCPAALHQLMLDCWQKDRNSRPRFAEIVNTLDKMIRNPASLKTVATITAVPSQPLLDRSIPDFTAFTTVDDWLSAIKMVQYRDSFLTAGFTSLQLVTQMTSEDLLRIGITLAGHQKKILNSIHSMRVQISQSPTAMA
Chain of UniProt Q9BUB5 (whole entry, looked up): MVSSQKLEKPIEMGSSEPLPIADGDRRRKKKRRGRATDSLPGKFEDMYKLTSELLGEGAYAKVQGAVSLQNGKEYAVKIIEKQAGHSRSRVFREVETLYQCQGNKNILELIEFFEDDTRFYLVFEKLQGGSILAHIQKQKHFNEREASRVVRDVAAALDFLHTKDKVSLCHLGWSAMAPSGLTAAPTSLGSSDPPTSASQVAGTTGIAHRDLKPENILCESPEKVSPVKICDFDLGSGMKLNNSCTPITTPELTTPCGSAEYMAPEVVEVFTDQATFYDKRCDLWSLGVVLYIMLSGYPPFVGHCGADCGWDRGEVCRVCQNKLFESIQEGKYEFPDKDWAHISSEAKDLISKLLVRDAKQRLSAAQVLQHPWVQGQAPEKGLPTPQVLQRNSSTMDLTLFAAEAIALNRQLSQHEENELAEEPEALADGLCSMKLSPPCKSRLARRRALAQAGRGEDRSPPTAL
Chain of UniProt O14936 (whole entry, looked up): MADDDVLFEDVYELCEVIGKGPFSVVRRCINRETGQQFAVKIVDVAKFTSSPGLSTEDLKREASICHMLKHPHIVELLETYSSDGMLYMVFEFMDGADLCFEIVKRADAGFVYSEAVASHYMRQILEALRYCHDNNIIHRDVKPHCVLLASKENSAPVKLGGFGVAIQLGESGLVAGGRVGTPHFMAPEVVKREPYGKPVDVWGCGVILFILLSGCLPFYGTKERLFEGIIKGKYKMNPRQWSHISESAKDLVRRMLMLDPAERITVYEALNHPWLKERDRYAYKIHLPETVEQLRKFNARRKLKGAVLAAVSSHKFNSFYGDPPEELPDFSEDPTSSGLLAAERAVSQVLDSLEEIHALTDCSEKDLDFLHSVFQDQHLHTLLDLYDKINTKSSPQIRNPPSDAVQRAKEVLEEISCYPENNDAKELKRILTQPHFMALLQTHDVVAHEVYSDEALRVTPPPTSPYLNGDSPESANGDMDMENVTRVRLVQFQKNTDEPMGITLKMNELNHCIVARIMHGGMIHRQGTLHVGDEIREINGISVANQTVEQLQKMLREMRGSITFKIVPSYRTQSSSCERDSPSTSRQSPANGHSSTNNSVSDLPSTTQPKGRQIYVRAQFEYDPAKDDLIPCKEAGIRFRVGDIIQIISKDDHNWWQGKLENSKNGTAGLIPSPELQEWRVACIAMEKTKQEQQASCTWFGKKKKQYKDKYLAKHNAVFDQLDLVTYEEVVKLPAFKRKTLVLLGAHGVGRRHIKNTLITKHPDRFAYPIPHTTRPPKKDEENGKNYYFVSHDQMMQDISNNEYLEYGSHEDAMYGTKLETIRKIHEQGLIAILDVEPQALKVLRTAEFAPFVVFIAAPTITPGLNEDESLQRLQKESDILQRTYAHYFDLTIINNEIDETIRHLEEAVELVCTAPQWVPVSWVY
Chain of UniProt P41743 (whole entry, looked up): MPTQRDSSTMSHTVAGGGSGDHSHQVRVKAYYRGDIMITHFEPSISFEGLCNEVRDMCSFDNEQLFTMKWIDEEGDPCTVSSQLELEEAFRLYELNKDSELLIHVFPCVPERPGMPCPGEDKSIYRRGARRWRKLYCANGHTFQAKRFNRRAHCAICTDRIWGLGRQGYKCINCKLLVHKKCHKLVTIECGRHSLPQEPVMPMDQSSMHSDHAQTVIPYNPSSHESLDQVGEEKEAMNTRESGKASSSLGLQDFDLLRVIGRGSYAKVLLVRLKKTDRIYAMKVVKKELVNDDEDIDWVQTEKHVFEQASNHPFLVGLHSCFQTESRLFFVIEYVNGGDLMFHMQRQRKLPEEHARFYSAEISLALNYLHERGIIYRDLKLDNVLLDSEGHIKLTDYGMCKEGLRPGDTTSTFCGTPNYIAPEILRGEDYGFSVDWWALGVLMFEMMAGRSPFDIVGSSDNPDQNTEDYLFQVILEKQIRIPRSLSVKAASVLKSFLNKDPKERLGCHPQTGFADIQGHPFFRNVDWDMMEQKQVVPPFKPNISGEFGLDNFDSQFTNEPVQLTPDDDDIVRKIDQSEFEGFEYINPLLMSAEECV
Chain of UniProt Q15303 (whole entry, looked up): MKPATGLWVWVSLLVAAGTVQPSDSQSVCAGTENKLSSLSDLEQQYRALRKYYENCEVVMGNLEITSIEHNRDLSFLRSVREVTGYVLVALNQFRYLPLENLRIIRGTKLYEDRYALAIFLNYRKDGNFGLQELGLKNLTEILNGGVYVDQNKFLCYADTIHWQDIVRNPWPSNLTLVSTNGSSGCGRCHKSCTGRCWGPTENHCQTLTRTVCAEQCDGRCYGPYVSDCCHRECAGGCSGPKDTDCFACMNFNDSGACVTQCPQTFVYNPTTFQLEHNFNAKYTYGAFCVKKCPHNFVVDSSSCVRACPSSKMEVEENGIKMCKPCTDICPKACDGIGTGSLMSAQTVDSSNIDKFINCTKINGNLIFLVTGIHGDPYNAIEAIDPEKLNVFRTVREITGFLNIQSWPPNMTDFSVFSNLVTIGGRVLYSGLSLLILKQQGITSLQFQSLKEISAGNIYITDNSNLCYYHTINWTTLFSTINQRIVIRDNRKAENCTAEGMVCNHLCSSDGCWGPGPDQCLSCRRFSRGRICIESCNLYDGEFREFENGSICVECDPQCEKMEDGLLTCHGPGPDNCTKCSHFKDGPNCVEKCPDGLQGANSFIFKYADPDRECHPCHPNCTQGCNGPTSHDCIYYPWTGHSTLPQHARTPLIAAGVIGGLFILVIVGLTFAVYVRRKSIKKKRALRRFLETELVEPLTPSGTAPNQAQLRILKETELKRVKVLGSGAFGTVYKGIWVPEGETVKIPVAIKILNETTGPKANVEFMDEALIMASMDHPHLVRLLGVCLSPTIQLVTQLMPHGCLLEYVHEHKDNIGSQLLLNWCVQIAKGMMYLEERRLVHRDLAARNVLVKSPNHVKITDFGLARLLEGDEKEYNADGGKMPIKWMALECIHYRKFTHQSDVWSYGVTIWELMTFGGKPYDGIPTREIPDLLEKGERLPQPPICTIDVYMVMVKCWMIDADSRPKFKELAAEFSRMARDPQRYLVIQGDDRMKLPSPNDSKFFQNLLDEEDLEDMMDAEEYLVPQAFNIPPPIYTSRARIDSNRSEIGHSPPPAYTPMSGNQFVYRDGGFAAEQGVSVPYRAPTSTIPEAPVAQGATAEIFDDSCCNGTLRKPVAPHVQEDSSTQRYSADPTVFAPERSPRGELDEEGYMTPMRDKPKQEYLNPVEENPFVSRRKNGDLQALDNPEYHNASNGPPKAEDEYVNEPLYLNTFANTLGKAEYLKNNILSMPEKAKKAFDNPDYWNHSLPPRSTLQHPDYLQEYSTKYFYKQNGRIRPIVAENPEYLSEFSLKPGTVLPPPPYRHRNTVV

Sample 1 — host: human; matrix: microsomes or S9; tested at: 2 µM; time: 0.5 h
`COc1c(Cl)ccc(C2=NOC(c3cc(N)c(Cl)c(C(=O)O)n3)C2)c1F` (centres unmarked) gave a remaining compound of over 99%.
With `O=C(CCCOc1ccc(Cl)cc1Cl)Nc1ccc2c(c1)COC2=O` the remaining compound was 68.6%.
With `Cc1nnc(-c2csc(S(=O)(=O)NC(C)C)c2)o1` the remaining compound was 66.6%.

Sample 2 — cell line: mouse MPNST tumor cells; method: high-content immunofluorescence imaging; measured: nuclear SOX9; tested at: 10 µM; time: 12 h; notes: mean of 2 replicates; reference: DMSO control; reading: higher = more nuclear SOX9
`O=c1[nH]cc(F)c(=O)[nH]1` — result for “nuclear SOX9 intensity”: 108 % of DMSO and 107 % of DMSO.
`CN1CCC[C@@H]1CCO[C@](C)(c1ccccc1)c1ccc(Cl)cc1`: “nuclear SOX9 intensity” 218 % of DMSO and 201 % of DMSO.
`CN1CC(=O)N2[C@H](c3ccc4c(c3)OCO4)c3[nH]c4ccccc4c3C[C@@H]2C1=O`: “nuclear SOX9 intensity” 92.8 % of DMSO and 91.2 % of DMSO.
Under “nuclear SOX9 intensity”, `Cc1cc2c(cc1C(F)(F)F)N(C(=O)Nc1ccc(Oc3cccnc3C)nc1)CC2` is recorded as 124 % of DMSO.

Sample 3 — effect on: cell-free assay; method: competition with immobilised ligand; tested at: 1 µM
SMILES: CCCOc1ccc([C@H]2[C@H](C(=O)O)[C@@H](c3ccc4c(c3)OCO4)CN2CC(=O)Nc2c(CC)cccc2CC)cc1
The remaining binding was 77% (Peripheral plasma membrane protein CASK (CASK, Homo sapiens, UniProt O14936)).
MAP kinase-interacting serine/threonine-protein kinase 1 (MKNK1, Homo sapiens, UniProt Q9BUB5) — remaining binding: 65%.
The remaining binding was 75% (Tyrosine-protein kinase ABL1, phosphorylated (ABL1, Homo sapiens, UniProt P00519, Y253F)).
For Protein kinase C iota type (PRKCI, Homo sapiens, UniProt P41743): remaining binding read 78%.
Receptor tyrosine-protein kinase erbB-4 (ERBB4, Homo sapiens, UniProt Q15303) — remaining binding: 100%.
For Ribosomal protein S6 kinase alpha-2, N-terminal kinase domain (RPS6KA2, Homo sapiens, UniProt Q15349): remaining binding read 93%.
The remaining binding was 100% (Ephrin type-B receptor 1 (EPHB1, Homo sapiens, UniProt P54762)).
The remaining binding was 100% (Hepatocyte growth factor receptor (MET, Homo sapiens, UniProt P08581, Y1235D)).
It gave 29% for remaining binding (Serine/threonine-protein kinase Nek5 (NEK5, Homo sapiens, UniProt Q6P3R8)).
The remaining binding was 98% (Serine/threonine-protein kinase 36 (STK36, Homo sapiens, UniProt Q9NRP7)).
The remaining binding was 96% (SRSF protein kinase 2 (SRPK2, Homo sapiens, UniProt P78362)).
Cyclin-dependent kinase-like 5 (CDKL5, Homo sapiens, UniProt O76039) — remaining binding: 85%.
For Serine/threonine-protein kinase RIO1 (RIOK1, Homo sapiens, UniProt Q9BRS2): remaining binding read 86%.

Sample 4 — target: DDIT3, bZIP domain (human); method: DHFR protein complementation; matrix: yeast; reference: wild-type JUN-FOS pair; reading: higher = stronger binding
Notes: single substitutions, most at no-binding floor
Starting sequence: JUN, bZIP domain (human); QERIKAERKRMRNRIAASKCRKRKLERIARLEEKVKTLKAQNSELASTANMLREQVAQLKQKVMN; partner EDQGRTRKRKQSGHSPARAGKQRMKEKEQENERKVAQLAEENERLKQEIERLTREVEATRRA
`A40F` gave a binding fitness of -0.116 natural log.
With `S47D` the binding fitness was 0.12 natural log.
For `K39W`, the binding fitness was -0.459 natural log.
For `Q55W`, the binding fitness was -0.204 natural log.
`R30E` gave a binding fitness of 0.207 natural log.
The binding fitness of `R30V` is reported as 0.198 natural log.
With `L45D` the binding fitness was -1.4 natural log.
`M51E` has a binding fitness of 0.0507 natural log.

Other studies, line by line
`c1ccc(Oc2ccc(Nc3c4c(nc5ccccc35)CCC4)cc2)cc1` has a cytotoxicity of 10% and -8% (RAW264.7; resazurin; 0.066 µM).

A few entries again (sample 4):
`A40F` gave a binding fitness of -0.116 natural log.
With `S47D` the binding fitness was 0.12 natural log.
For `K39W`, the binding fitness was -0.459 natural log.
